Measured values pooled from the literature.
Numbered parts are unrelated; each lists some results of a single study. Changes are numbered by the printed parent chain.

Set 1
Target: ABI1, truncated, D143A, DHFR fusion (Arabidopsis thaliana, UniProt P49597)
Technique: DHFR PCA, dose-response
Medium: yeast
Notes: Hill fit, mean, not affinity
Together with: (+)-ABA, dose series
Direction: lower = more sensitive
Endpoint: ABA EC50
Starting sequence: PYL1, truncated, DHFR fusion (Arabidopsis thaliana, UniProt Q8VZS8); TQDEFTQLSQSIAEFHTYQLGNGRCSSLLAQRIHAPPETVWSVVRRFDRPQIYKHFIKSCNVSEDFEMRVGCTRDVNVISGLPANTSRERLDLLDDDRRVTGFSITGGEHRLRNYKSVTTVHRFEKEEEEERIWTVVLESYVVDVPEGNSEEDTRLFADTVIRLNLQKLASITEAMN
Change = V100Q; value = 87.1 µM
Change = G108H; value = 215 µM
Change = D97V; value = 2.7 µM
Change = T39S; value = 4.57 µM
Change = Q10F; value = 22.5 µM
Change = E151H; value = 6.59 µM
Change = N114C; value = 181 µM
Change = M68S; value = 16.1 µM

Set 2
Target: Hepatocyte nuclear factor 3-beta, forkhead domain (FOXA2, Homo sapiens, UniProt Q9Y261, residues 142-269)
Technique: protein-binding microarray
Form: double-stranded DNA, one strand shown
Medium: in vitro
Tested at: not given
Notes: k-mer, scored over probes, only values ≥0.25
Direction: higher = stronger binding
Endpoint: E-score
Residues (chain): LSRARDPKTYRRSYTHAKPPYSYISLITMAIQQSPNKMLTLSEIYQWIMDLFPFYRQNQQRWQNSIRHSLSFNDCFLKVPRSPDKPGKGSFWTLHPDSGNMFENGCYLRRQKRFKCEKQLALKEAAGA
Sequence = ACTATCAT; value = 0.26
Sequence = AATACAGC; value = 0.257
Sequence = GATATATC; value = 0.265
Sequence = AATGTATC; value = 0.31
Sequence = AGTTATTA; value = 0.255
Sequence = TCTATTCA; value = 0.258
Sequence = GTGGTATA; value = 0.308
Sequence = TACTGTGA; value = 0.261

Set 3
Target: CCND1, cyclin fold, Cln2 fusion (human)
Technique: yeast growth competition, sequencing
Medium: yeast
Notes: weak parent motif
Reference: not given
Direction: higher = stronger binding
Endpoint: normalised enrichment score
Starting sequence: E2F1 docking peptide (human); PPVKRRLDLETDH
Change = PPVKRRLDLKTDH [E10K]; value = -0.455
Change = PPDKRRLDLETDH [V3D]; value = 0.7
Change = PPVKRRLRLETDH [D8R]; value = 0.215
Change = PPVKRRLDLSTDH [E10S]; value = -0.0908
Change = PPVKRRLDLETDI [H13I]; value = 1.19
Change = PPVKRRLMLETDH [D8M]; value = 0.102
Change = PPVKRRLYLETDH [D8Y]; value = -0.696
Change = PPVKRRQDLETDH [L7Q]; value = -0.277

Further values, each from its own experiment
Sequence = GELRKAICL; target = HLA class I histocompatibility antigen, A alpha chain, allele A*26:03 (Homo sapiens, UniProt P04439); test = peptide-MHC binding; test system = peptide; setting = concentration not given; endpoint = binding; value = inactive

Some of these lines once more (set 3):
Change = PPVKRRLDLSTDH [E10S]; value = -0.0908
Change = PPVKRRLDLETDI [H13I]; value = 1.19
Change = PPVKRRLMLETDH [D8M]; value = 0.102
Change = PPVKRRLYLETDH [D8Y]; value = -0.696
